{"data": "Experimental data pooled from the literature", "target": "Casein kinase I isoform gamma-2 (CSNK1G2, Homo sapiens, UniProt P78368)", "note": "Several values in a cell are separate wells, animals, samples, runs or records.", "UniProt P78368, sequence (whole entry, looked up)": "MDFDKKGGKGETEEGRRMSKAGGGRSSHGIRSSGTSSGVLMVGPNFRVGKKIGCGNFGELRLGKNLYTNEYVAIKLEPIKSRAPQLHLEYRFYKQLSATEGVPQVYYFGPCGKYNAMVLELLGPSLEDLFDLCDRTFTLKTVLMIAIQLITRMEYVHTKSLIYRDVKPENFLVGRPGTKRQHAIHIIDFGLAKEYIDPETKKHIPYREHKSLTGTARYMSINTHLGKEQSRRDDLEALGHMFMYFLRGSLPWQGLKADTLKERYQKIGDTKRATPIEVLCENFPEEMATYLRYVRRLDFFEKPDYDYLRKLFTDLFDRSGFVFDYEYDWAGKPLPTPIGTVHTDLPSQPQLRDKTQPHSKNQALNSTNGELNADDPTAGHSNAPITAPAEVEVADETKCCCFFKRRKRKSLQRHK"}
{"SMILES": "C=CC(=O)Nc1cccc(-c2cnc3[nH]cc(C(=O)NC(C)(C)C)c3n2)c1", "test": "kinase activity", "setting": "0.1 µM", "measurement": "inhibition", "result": "1% and 7%"}
{"SMILES": "COCC12C(=O)NC3C4(C(OC)CC1O)C1CC5(O)C(OC)C(O)C(OC(C)=O)(C1C5OC(=O)c1ccccc1)C3(O)C(OC)C24 (stereo not shown)", "test": "kinase activity, inhibitor, ProQinase kinase profiling", "setting": "25 µM", "how to read": "relative to: control", "measurement": "remaining activity", "result": "94% and 95%"}
{"SMILES": "COc1ccc(NC(=O)Nc2ccc3c(c2)C(=O)N(C(C)CO)CC(C)C(CN(C)Cc2ccc4c(c2)OCO4)O3)cc1 (stereo not shown)", "test": "binding, competition with immobilised ligand", "setting": "10 µM", "measurement": "remaining binding", "result": "100%"}
{"SMILES": "NC(=O)C[C@H]1CCc2sc3ncnc(O[C@H]4CC[C@H](N5CCOCC5)CC4)c3c21", "test": "enzyme activity, inhibitor", "setting": "10 µM", "measurement": "inhibition", "result": "3%"}
{"SMILES": "C=CC(=O)N1CCCC(n2c(=O)c3ncccc3n(Cc3ccc(Oc4ccccc4)cc3)c2=O)C1 (stereo not shown)", "test": "cell-free assay, competition with immobilised ligand", "setting": "1 µM", "measurement": "remaining binding", "result": "87%"}
{"SMILES": "Cc1cnc2nc1Nc1cccc(c1)COC/C=C/COCc1cc(ccc1OCCN1CCOCC1)N2", "test": "cell-free assay", "setting": "0.1 µM", "measurement": "remaining signal", "result": "84%"}
{"SMILES": "CNC(=O)C[C@H](Cc1ccc(C#N)cc1)NC(=O)c1cc(-c2ccc(CN[C@H](C)c3ccc(C)cc3)o2)ccc1Cl", "test": "enzyme activity, inhibitor", "setting": "1 µM", "measurement": "activity vs control", "result": "108%"}
{"SMILES": "C=CC(=O)N1CCc2ccc(-n3c(=O)ccc4cnc5ccc(-c6cnn(C)c6)cc5c43)cc21", "test": "KINOMEscan", "setting": "1 µM", "how to read": "relative to: DMSO control", "measurement": "remaining binding", "result": "100%"}
{"SMILES": "COc1cc(Nc2nccc(-c3cnn4nc(OC)ccc34)n2)cc(C(F)(F)F)c1", "test": "binding, competition with immobilised ligand", "setting": "1 µM", "measurement": "remaining binding", "result": "97%"}
{"SMILES": "CN1CCN(Cc2ccc(NC(=O)c3cccc(C#Cc4cnc(N)c5ncccc45)c3)cc2C(F)(F)F)CC1", "test": "cell-free assay, competition with immobilised ligand", "setting": "0.5 µM", "measurement": "remaining binding", "result": "69%"}
{"SMILES": "C=CC(=O)Nc1cc(-c2nn(C3CCN(CCNC(=O)[C@H](C)CCC45CC6CC(CC(C6)C4)C5)CC3)c3ncnc(N)c23)ccc1Oc1ccccc1", "test": "inhibitor, KiNativ profiling", "system": "biochemical", "setting": "2 µM", "measurement": "inhibition", "result": "8.6%"}
{"SMILES": "Cc1cccc(O[C@H]2CCC[C@@H](C(C)CNCc3ccncc3)C2)c1 (relative stereo)", "test": "kinase activity, kinome panel screening", "setting": "1 µM", "measurement": "inhibition", "result": "-6%"}
{"SMILES": "CN1CC[C@@H](COc2cnc(C#N)cc2-c2ccn3nc(NC(=O)C4CC4)cc3c2)C1", "test": "enzyme activity, inhibitor", "setting": "1 µM", "measurement": "inhibition", "result": "11%"}
{"SMILES": "CC(C)=CC1OC(C)(C)C2C=C3C(=O)C(Cl)=CC(O)C3C3C(O)C4OC4C(=O)C132 (stereo not shown)", "test": "cell-free assay, competition with immobilised ligand", "setting": "10 µM", "measurement": "remaining binding", "result": "95%"}
{"SMILES": "CNC1C[S+]2CC[S+]3CC[S+](C1)[Ru-4]321([N]=C=S)[n]2c3ccc(OC)cc3c3c4c(c5cc(F)c[n+]1c5c32)C(=O)NC4=O (stereo not shown)", "test": "KinomeScan", "setting": "0.1 µM", "how to read": "relative to: untreated", "measurement": "remaining binding", "result": "95%"}
{"SMILES": "O=C(Cc1ccc(OCc2ccccc2)cc1)NC1(C(=O)O)CCN(C(=O)c2ccc(-c3cccc(Cl)c3)cc2)CC1", "test": "enzyme activity, inhibitor", "setting": "10 µM", "measurement": "activity vs control", "result": "105%"}
{"SMILES": "CC(=O)N1c2ccc(-c3ccc(CNC(=O)c4cn5cc(-c6cnc(N)nc6)nc(N6CCOCC6)c5n4)cc3)cc2CC[C@@H]1C", "test": "KINOMEscan", "setting": "10 µM", "measurement": "remaining binding", "result": "90%"}
{"SMILES": "Cc1ccc(-c2c(/C=C(\\C#N)C(=O)NC(C)C)n(CCCO)c3ncnc(N)c23)cc1", "test": "cell-free assay, competition with immobilised ligand", "setting": "1 µM", "measurement": "remaining binding", "result": "100%"}
{"SMILES": "C=C1CCCCCCCCCC(CO)C1=O (stereo not shown)", "test": "cell-free assay", "setting": "10 µM", "measurement": "remaining signal", "result": "100%"}
